Published values from different studies.
A part holds a random share of what one study measured. Positions count from the first letter of the parent shown.

Study 1 — target: CCNB2, cyclin fold, Cln2 fusion (human); method: yeast growth competition, sequencing; sample: yeast; notes: weak parent motif; reference: not given; reading: higher = stronger binding
Starting sequence: GMNC docking peptide (human); KNAKRNLSSEFAN
Variant | normalised enrichment score
L7W | 0.127
S9T | 0.814
N2M | 0.267
L7V | 0.119
S9I | 0.44
K4R | 0.929
K4D | 0.119
R5V | -0.28
A3S | 0.484
N2A | 0.893

Study 2 — method: RNA Bind-n-Seq; form: RNA; sample: in vitro; tested at: not given; reference: input RNA pool; reading: higher = stronger binding
Target: RING finger protein unkempt homolog, zinc fingers 1-6, GST-SBP tag (UNK, Homo sapiens, UniProt Q9C0B0, residues 30-357)
Notes: RNA with constant flanks, human and mouse sites, ends assumed
Construct (chain): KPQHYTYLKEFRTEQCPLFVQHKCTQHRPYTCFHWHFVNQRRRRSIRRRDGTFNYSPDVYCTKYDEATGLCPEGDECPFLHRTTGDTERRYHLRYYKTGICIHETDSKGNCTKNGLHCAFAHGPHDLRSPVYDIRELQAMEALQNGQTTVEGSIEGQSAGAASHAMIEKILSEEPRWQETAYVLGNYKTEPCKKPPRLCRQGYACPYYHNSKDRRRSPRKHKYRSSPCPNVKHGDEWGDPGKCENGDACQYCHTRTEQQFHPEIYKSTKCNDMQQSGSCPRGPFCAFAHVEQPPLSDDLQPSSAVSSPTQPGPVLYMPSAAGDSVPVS
Sequence | bound/input enrichment [ratio]
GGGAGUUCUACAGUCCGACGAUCCCACAUUAUGUCAACGAUGGAAUUAAAAAUUUUACUCUUAAGUUUCUCCAGACAUUUUUUUUUUCUUUCCAUUGCUAAAAAAGCAAUCGAAGUUCCCCAUAUUCCCUGGCCCUCAGUGGUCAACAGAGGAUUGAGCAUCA | 0.349
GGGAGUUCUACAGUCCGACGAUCUAGCCAAGGUUUUUACAAAGGGGAAAGGAAAAGAAAACAAAAACGCAAGCUCCAUGUGUAUAGCUGAACUUUUAUAUGUUUCUUGCCAGCCCCUCCGCUCCCUUCCAUCUCUAGCCUCUGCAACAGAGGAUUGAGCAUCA | 0.239
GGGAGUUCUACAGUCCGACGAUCCAACUCCAAAGUCCAUGCAGGCUAACCUUAUAUAGUUUAUAUAGGGUUACUUACAGUGGAUGAGGGCUUAUGGGUUGGAGCAGAGGUGACCUUAAAGCAGCCACACUGGAAGGUCUGCAGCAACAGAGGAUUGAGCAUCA | 0.131
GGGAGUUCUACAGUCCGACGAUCGUGGAGGCCCUUUGUGCUGAACACCAAAUCAACCUAAUUAAGGUUGAUGACAACAAGAAACUAGGAGAAUGGGUAGGCCUUUGUAAAAUUGACAGAGAGGGGAAACCCCGUAAAGUGGUUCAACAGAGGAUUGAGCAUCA | 0.755
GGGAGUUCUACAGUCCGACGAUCUCUUCUCUUUUUGGAAUUUUAUCUCCUAGUAGUGAUCUCACACUUUCAAGUGUUCUCUGGGAUAGAGAGAGAUCAAGCUUUUAUAGCCUGACGAGUUCAAACAUCAGUAAAUGGGAAUUACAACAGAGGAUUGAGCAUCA | 0.634
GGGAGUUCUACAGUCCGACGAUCUACGACAGGGUUUCCAAGAAGGAAGCCAAGCCGCAGAUUUGUCAGCUGCCAGAGAGUUCAGAUUCUUCACAUUCUGAAAGUGAAUCAGAGAGUGAACAAGAGCACGUUUCAGGGUACCACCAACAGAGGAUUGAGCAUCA | 0.0801
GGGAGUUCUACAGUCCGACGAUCGCCCUGUGAGCCUGUAGGAGUAGAAUGGCUCCCCAAAUGUAUGAGUUCCAUCUGCCAUUAUCCCCAGAGGAGUUGUUGAAAAGUGGAGGGGUGAAUCAGUAUGUUGUGCAAGAGGUACUGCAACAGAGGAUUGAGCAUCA | 0.272
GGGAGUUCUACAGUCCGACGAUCUGUGUGUGUGUGUGUGUGUGUGCGCGCGCGCGUGAGUGUGUAUUGGGUGGUGGGUGGGUUUGGGAUGGACAUGGGUUAUCUUACAGAGACCUCUCUUCAUUUUGAUGUGGAGAAUUGGCCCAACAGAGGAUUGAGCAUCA | 1.29
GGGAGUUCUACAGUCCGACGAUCCAGAAUAAUAAGCUGAAUAGAAUCUGACCAUUGGCUUUCACCUGGCCAGGACCUUCUAUGUAGCUCUCCUUUUGUGGCCCAUGUGCUGCAUCCUCUGCCCUCAGUGUGCAACUGGCCCCCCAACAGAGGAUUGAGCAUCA | 0.296
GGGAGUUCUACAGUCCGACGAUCCCUGUACCCGCACCCCUGCCCAUGUGUACUGUAUGUGCCCCCAAAUGGAUGAGAGAUGGAAAUAGAAAGAGGGGGCCCGAGCCCAGCCCCCAGCUCAGCCCGAAGCACUUAACCAGUCCCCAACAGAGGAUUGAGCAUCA | 0.538
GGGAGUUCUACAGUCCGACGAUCAUAGGUUGGAAAGUAAUUUUUAACUUCUGGAAUCAUGUUGCCUACUGUUACUCUAAAUAGAAAUAUAGGGAAGGUUUUUUUUUUGUUGUUGUUGUUUUUUUAAAUGUGAAUUUUUGCCUACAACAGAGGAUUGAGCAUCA | 29.8

Study 3 — method: Spec-seq; form: double-stranded DNA, one strand shown; sample: in vitro; tested at: not given; notes: whole probe, mean of replicates; reference: not given; reading: lower = stronger binding; all sequences stand within: GAGTCGTCTCGTCAGCAC … CCGTAGAGCACTCAGGTC
Target: POU, POU domain (Salpingoeca helianthica)
Residues (chain): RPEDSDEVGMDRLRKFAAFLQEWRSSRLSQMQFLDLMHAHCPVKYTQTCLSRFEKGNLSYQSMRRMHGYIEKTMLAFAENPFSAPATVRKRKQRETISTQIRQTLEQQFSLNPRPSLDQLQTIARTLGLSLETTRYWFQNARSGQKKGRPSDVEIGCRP
Sequence | relative binding energy [ln ratio]
AATTTAAT | -0.432
ATGCCCCT | 1.59
ATAAGAAT | 1.12
CCGTTAAT | -0.279
ATTGGAAT | 1.03
ATGCACCG | 1.36
ATATGGAT | 1.45
ATGCCGTC | 1.29
ATGCCTTT | 0.97
ATGCAGCA | 1.21
ATGCTACA | 1.12
ATAGTGAT | 1.01

Single results of other studies
Substance | target | test | system | setting | how to read | quantity | value
PhoQ, residues 284 288 289 292 302 303 SLGVVW | PhoP, residues 12 14 15 18 19 LWHSL (Escherichia coli, UniProt P23836) | Sort-seq, refers to: YFP reporter | E. coli | PhoQ-PhoP variant library, with: 10 µM Mg2+ | reference: high Mg2+ state, higher = stronger signaling | fold induction | 2.36

Some of these lines once more (study 1):
Variant | normalised enrichment score
K4R | 0.929
K4D | 0.119
R5V | -0.28
